Published values gathered from unrelated publications.
Each line is one published result; not all experiments were run side by side. ± marks the error that the study gave.

The chains behind the UniProt entries cited, without tags or fusion partners. Residues count along the entry.
UniProt P45983, 1-384 isoform 3: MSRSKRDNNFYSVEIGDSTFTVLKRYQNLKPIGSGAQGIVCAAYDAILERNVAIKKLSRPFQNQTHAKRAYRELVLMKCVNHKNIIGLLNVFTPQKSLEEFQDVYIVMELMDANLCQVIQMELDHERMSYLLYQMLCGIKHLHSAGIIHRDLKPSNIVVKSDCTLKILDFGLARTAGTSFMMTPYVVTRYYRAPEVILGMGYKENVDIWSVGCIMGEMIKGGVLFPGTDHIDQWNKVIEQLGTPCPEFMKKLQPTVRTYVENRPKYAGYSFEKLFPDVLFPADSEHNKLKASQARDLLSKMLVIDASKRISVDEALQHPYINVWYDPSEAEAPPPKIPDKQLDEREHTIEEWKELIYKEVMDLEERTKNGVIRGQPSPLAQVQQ

Compound | target or system | assay | system | setting | scale | measurement | value
CC(=NN=c1[nH]c2cc(F)c(F)cc2n1C)c1ccc(F)cn1 | – | – | LM2 xenograft, mice | 10 mg/kg/day, four weeks | – | tumour volume reduction | > 50%
COC(=O)[C@@H]1C(C=Nc2ccccc2O)=Cc2cc3c(cc2[C@H]1c1cc(OC)c(OC)c(OC)c1)OCO3 | Leishmania infantum | iRFP fluorescence | mouse splenocytes infected, amastigote, iRFP, ex vivo splenic explant | 48 h | – | EC50 | 9.4 ± 0.7 µM
C=CC(=O)N1CCC(c2cc(Nc3cc4n(n3)CCOC4)c3ncnn3c2)C1 (single isomer, unassigned) | TMD8 | calcium flux, FLIPR | – | 2 h preincubation, together with: anti-IgM | – | IC50 | > 1 µM
C[C@@H]1CN(C2CCC2)CC[C@H](O[C@H]2[C@@H](O)C[C@H](O[C@H]3[C@@H](O)C[C@H](O[C@H]4CC[C@@]5(C)[C@H](CC[C@@H]6[C@@H]5C[C@@H](O)[C@]5(C)[C@@H](C7=CC(=O)OC7)CC[C@]65O)C4)O[C@@H]3C)O[C@@H]2C)O1 | – | – | rat hippocampal slices | 10 µM, 24 min | – | baseline extracellular K+ | 3.81 ± 0.17 mM
CCC1NC(=O)C(CCCNC(=N)N)NC(=O)C(C)(NC(=O)C(C)C)CCCCNC(=O)C(c2ccccc2)NC1=O (stereo not shown) | – | immunoblot | MLL-AF9 leukaemia cells, mouse | dose not given, 4 days | – | H4K16ac level | no effect
Cc1ncsc1-c1ccc([C@H](C)NC(=O)[C@@H]2C[C@@H](O)CN2C(=O)[C@@H](NC(=O)CCCCCCC(=O)N2CCN(C[C@]3(C)CCC(c4ccc(Cl)cc4)=C(CN4CCN(c5ccc(C(=O)NS(=O)(=O)c6ccc(N[C@H](CCN7CCOCC7)CSc7ccccc7)c(S(=O)(=O)C(F)(F)F)c6)cc5)CC4)C3)CC2)C(C)(C)C)cc1 | – | measured: SASP and necroptosis genes | STAM mice NASH-HCC model, liver | dose not given, day 150, treated days 45-150 | – | mRNA level | decreased
CCOC(=O)C1=C(C)NC2=C(C(=O)CC(C)(C)C2)C1c1ccc(OCC(=O)NN=Cc2cccc(C=O)c2)cc1OCC(=O)NN=Cc1cccc(C=O)c1 (stereo not shown) | Proteus vulgaris | – | – | concentration not given, 24 h | – | inhibition zone diameter | 3.5 ± 0.6 mm
C=CC(=O)Nc1cccc(N(C(=O)OCc2ccc(F)cc2)c2ccnc(Nc3ccn(C)n3)n2)c1 | Ba/F3 wild-type EGFR | cell growth | – | – | – | EC50 | 0.021 ± 0.0042 µM
CN(C)C(=O)Cn1cc(-c2ccc(-c3cncc4ccncc34)cc2)cn1 | HL-60 | flow cytometry | – | concentration not given, 24 h | – | viability | no effect
CCOC(=O)c1ccc(-c2nc(C)c(CSc3ccc(OCC(=O)O)c(C)c3)s2)cc1 | HEK293T | – | – | 18 h | – | CC50 | > 80 µM
COc1cc([C@@H]2c3cc4c(cc3[C@H](CC(C)C)[C@H]3COC(=O)[C@H]23)OCO4)cc(OC)c1OC | Leishmania infantum | Alamar Blue | HepG2 | – | reference: CC50 HepG2 over EC50 amastigotes | selectivity index | > 6.4
Cc1cc(SCc2sc(-c3cn[nH]c3)nc2C)ccc1OCC(=O)O | HEK293T | – | – | 18 h | – | CC50 | not toxic
CCCSc1nc(N[C@@H]2C[C@H]2c2ccc(F)c(F)c2)c2nnn([C@@H]3C[C@H](O)[C@@H](O)[C@H]3O)c2n1 | – | – | rat, female, plasma | oral, 60 mg/kg/day ticagrelor, day 1 | – | AUC | 30.8 µM·h
COc1cc([C@@H]2c3cc4c(cc3[C@H](C=C(C)C)[C@H]3COC(=O)[C@H]23)OCO4)cc(OC)c1OC | Leishmania infantum | Alamar Blue | HepG2 | – | reference: CC50 HepG2 over EC50 amastigotes | selectivity index | 4.5
COC(=O)[C@@]1(C)C=C(C(=O)Nc2cccc(C(=O)NC34CC(Nc5nccc(-c6cccnc6)n5)(C3)C4)c2)C(=O)CC1 | Mitogen-activated protein kinase 8 (MAPK8, Homo sapiens, UniProt P45983) | kinase activity, inhibitor | – | 0.0007527 µM, unit not given, together with: 10 mM GSH | reference: DMSO | remaining activity | 1.01
CCn1nccc1N=CC1=Cc2cc3c(cc2[C@@H](c2cc(OC)c(OC)c(OC)c2)[C@@H]1C(=O)OC)OCO3 | Leishmania infantum | – | promastigote, iRFP | – | – | EC50 | 14.2 ± 2.1 µM
C/C=C/Cn1c(Cc2cc(OC)c(OC)c(OC)c2)nc2c(N)ncnc21 | Trap-1 | binding, fluorescence polarization competition | – | – | – | Ki | 28.6 ± 1.2 µM
CCOc1ccccc1Nc1nnc(SCC(=O)Nc2cc(F)ccc2F)s1 | A549 spheroids with human PBMCs | – | – | 5 µM, 48 h, E:T 5:1, together with: anti-CD3 0.3 µg/mL | – | IFN-γ level | 71 ± 6 pg/mL
COc1cc([C@@H]2c3cc4c(cc3[C@](O)(C3(O)CCOCC3)[C@H]3COC(=O)[C@H]23)OCO4)cc(OC)c1OC | Leishmania infantum | iRFP fluorescence | mouse splenocytes infected, amastigote, iRFP, ex vivo splenic explant | 48 h | – | EC50 | 5.9 ± 1.1 µM
